Measurements gathered from unrelated publications.
Numbered parts are unrelated; each lists some results of a single study. Changes are numbered by the printed parent chain.

Series 1
Target: RNA binding protein fox-1 homolog 2, RRM domain, GST-SBP tag (RBFOX2, Homo sapiens, UniProt O43251-10, residues 100-194)
Technique: RNA Bind-n-Seq
Molecule type: RNA
Sample: in vitro
Concentration: 365 nM
Setting: natural RNA segment, single round, ends assumed
Reference: no-protein control
Direction: higher = stronger binding
All sequences stand within: GGGAGUUCUACAGUCCGACGAUC … UGGAAUUCUCGGGUGCCAA
Construct (chain): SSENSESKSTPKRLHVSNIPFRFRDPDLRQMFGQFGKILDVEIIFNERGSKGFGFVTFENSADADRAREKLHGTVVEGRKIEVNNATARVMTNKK
`GCUCUCUUCUUAUGGAUACCUGCAUUUAACUUGUGGACUAUGUAAACACAAUAUAUAUCAAUAUCUAUAUAUCUAUAUAUCGAUCUAUAUAAACUACUAGCUUUUCCUUU`: “RBNS enrichment (R)” 0.452.
Under “RBNS enrichment (R)”, `UGAAUGCCUCCUGUGCUGUCUAGUGGGACUACAGAAUGCUGUUUGAUACUGUGUGCGACGUGGAGAGAUUUAAUUAUUUGUAAUAAAGGAUUUGCUAUGGUCUAUUAAUU` is recorded as 2.39.
For `GUGGCUCUGCCACCCUGCAGGCAGCCCUCUUGGCCUAGUUUUCCUGGCAUAGGGUGAGGCACAGCUUGAAAGGUGGUCAGACCUGCUUGGGCUUCUUUGCUUUUCAAAUG`, “RBNS enrichment (R)” read 0.264.
`UCCCUGGGGCCAACGGCAACAGCAUGGGCCUCACCUCCUCUGUGAUUUCUUUCUUUGCACCAAAGACAUCAGUCUCCAACAUGUUUCUGUUUUGUUGUUUGAUUCAGCAA` — result for “RBNS enrichment (R)”: 5.42.
Under “RBNS enrichment (R)”, `UUAAGUAAUUGGGACUCUAGCACAUCUUGACCUAGGGUCACUAGAGCUAAGCUUGCUUUGCAGGGCAGACACCUGGGACAGCCUUCCUCCCUCAUGUUUGCUGGGACACU` is recorded as 1.23.
`UAGGUGCCAAUUUGGGUGGGGGAGGAAGGAACAAUUACAAGAUCCCCAUCUGUCUGCCCAUGCCACCUAAACAAGUCAGGACUCCAAUUGGAUUUUGAAGUUAUUUUAAU` — result for “RBNS enrichment (R)”: 0.387.
Under “RBNS enrichment (R)”, `UUCCCAACUGUUGGCUAGAUAAUCAUCUGAGGCUAUCAUUAUAGUGCUGAUGUCCAAGACUUAACCAGAAGGGAUCUGGGAGGGCCUAGAGGUGGGCUCAGAAUUCUAGU` is recorded as 0.336.
Under “RBNS enrichment (R)”, `GCCAGCGUGGCCACCAAUAAGAUGAAAACAGAAGGAAGUUACAAUAUGAAAGACAGCACCUCACUGCUCCUGCAGACACAAGGGCCACCGGGGAGUUCCUGAAAGACUAG` is recorded as 0.63.
Under “RBNS enrichment (R)”, `GCCCCUGGCAGACAUAGCUGCUUCAGUGCCCCUUUUCUCUCUGCUAGAUGGAUGUUGAUGCACUGGAGGUCUUUUAGCCUGCCCUUGCAUGGCGCCUGCUGGAGGAGGAG` is recorded as 0.514.
Under “RBNS enrichment (R)”, `UAAGUUGCUGGGGAAAGUUAGAGGAACUGAAAGUUUGGGAAUAGGCUGACCACAUAUUAUGCCAGUGACCAGUAUGACAGGAGAUGGGGCCCUGCUGCCAGUCAUCUCCA` is recorded as 0.843.
`AGCUGCCUCAUUAGCCUGGCUUCAUUUGGGGAGCUCCUGACAGUGUCCCGAGUAGGUGCCCAGCCCCUCUUGGGUACCAGAGUGGUUAUAGCGACACACUCCUCAUCCAG` — result for “RBNS enrichment (R)”: 0.304.

Series 2
Target: CCNB3, cyclin fold, Cln2 fusion (human)
Technique: yeast growth competition, sequencing
Sample: yeast
Setting: weak parent motif
Reference: not given
Direction: higher = stronger binding
Parent: GMNC docking peptide (human); KNAKRNLSSEFAN
`L7C` — result for “normalised enrichment score”: -0.03.
For `S8G`, “normalised enrichment score” read 0.265.
`F11A` — result for “normalised enrichment score”: 0.285.
Under “normalised enrichment score”, `F11Y` is recorded as 0.0189.
`A3N`: “normalised enrichment score” 0.205.
Under “normalised enrichment score”, `R5I` is recorded as 0.2.
For `L7V`, “normalised enrichment score” read -0.105.
`L7N` — result for “normalised enrichment score”: -0.133.
For `A12G`, “normalised enrichment score” read 0.118.
Under “normalised enrichment score”, `N2V` is recorded as -0.0679.

Series 3
Target: RING finger protein unkempt homolog, zinc fingers 1-6, GST-SBP tag (UNK, Homo sapiens, UniProt Q9C0B0, residues 30-357)
Technique: RNA Bind-n-Seq
Molecule type: RNA
Sample: in vitro
Concentration: not given
Setting: RNA with constant flanks, ends assumed
Reference: input RNA pool
Direction: higher = stronger binding
All sequences stand within: GGGAGUUCUACAGUCCGACGAUC … CAACAGAGGAUUGAGCAUCA
Residues (chain): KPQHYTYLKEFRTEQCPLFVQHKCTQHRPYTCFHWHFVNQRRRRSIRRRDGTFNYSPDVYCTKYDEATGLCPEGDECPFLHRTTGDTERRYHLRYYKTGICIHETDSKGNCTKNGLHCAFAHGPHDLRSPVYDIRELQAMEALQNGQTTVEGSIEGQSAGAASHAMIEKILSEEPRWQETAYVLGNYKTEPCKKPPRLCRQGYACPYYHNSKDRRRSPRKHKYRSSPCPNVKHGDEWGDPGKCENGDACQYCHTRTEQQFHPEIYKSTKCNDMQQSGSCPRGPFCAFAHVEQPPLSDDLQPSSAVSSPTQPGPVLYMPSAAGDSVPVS
`CAGCAUGUCAUAGAAACCUUGAUUGGCAAAAAGCAACAGAUAUCUCUUGCAACACAAAUGGUCCGAAUGAUUUUGAAGAUUGAUGACAUUCGUAAGCCUGGAGAAUCUGAAGAAUGAAGA` gave a bound/input enrichment of 0.286 ratio.
`AAUGAGGCUGGUGAUGACCUUGAAGCUGUAGCCAAAUUUCUGGACUCUACAGGCUCAAGAUCCGAUUAUCGUCGCUAUGCAGACACACUCUUCGAUAUCCUGGUGGCUGGCAGUAUGCUU` has a bound/input enrichment of 0.261 ratio.
`AAGAGCACCUCAGGAAGCACUGGGGCGGGUGACACUCGUCUCGGCGACCAAGGGCAGUGCCCGCAUCUGUCCGCAUUGCCUAUGCUCCGUUCAAUCCUGAACUAAAGCGUACACUUCUUC` has a bound/input enrichment of 0.0338 ratio.
`GGUCACACCAGGCCUAAGAAGGCAGAAGUUGAAUCAAUUGAACUAGGGCACUAAACUGAACCGUUGACAGUGUCAUUUUAUGUUGGAUUAUUAAUUCCUGUUUUUCUUUCUGCUAUCUGU` gave a bound/input enrichment of 0.188 ratio.
The bound/input enrichment of `AGUGCUGCAGCAGCUCCCAGUCCAGUGCUAGGAAACAUUCCCCCAGGAGAUGGCAUGCCAGCCGGUCCUGUACCACCAGGGUUCUUUCAGGCACUUGGAGGUGUCCCAGGAAGUCAGCCA` is reported as 0.0935 ratio.
`CUCAAAGAGCUGCUCUCUUGGAAGGUUCUGAGCACGGAAGACUAUACAACAUGCUUUUCCCGCAAAAAUUUUGUCCAUGAAGCAGUGGACUAUGUUAUCGGUCACUUGAUCCAAGAGAAG` has a bound/input enrichment of 0.0984 ratio.
`CUGGGAGAUCUUCGAACUUUGGAAUUGCUUCUUAUCUGUGCAGGCCACCCUCAGUAUGAGGCCGCCGAAAUUUCCUUUAACUUUUGGUACCGACUAGGAGAACAUUUAUACAAAACCAAU` gave a bound/input enrichment of 0.977 ratio.

Single results of other studies
The fold induction of `PhoQ, residues 284 288 289 292 302 303 AGGCYF` is reported as 4.24 (PhoP, residues 12 14 15 18 19 AQCLL (Escherichia coli, UniProt P23836); Sort-seq, measured: YFP reporter; E. coli; PhoQ-PhoP variant library, with: 10 µM Mg2+; reference: high Mg2+ state, higher = stronger signaling).

Repeated from above (series 1):
`GCUCUCUUCUUAUGGAUACCUGCAUUUAACUUGUGGACUAUGUAAACACAAUAUAUAUCAAUAUCUAUAUAUCUAUAUAUCGAUCUAUAUAAACUACUAGCUUUUCCUUU`: “RBNS enrichment (R)” 0.452.
`AGCUGCCUCAUUAGCCUGGCUUCAUUUGGGGAGCUCCUGACAGUGUCCCGAGUAGGUGCCCAGCCCCUCUUGGGUACCAGAGUGGUUAUAGCGACACACUCCUCAUCCAG` — result for “RBNS enrichment (R)”: 0.304.
